Assay results of several laboratories.
Compare with care: the assays were run in different laboratories. Values joined by “and” are separate records of one study, mostly repeats; a detail may differ.
Target: Vascular endothelial growth factor receptor 1 (FLT1, Homo sapiens, UniProt P17948)

C=CC(=O)N1CCc2ccc(-n3c(=O)ccc4cnc5ccc(-c6cnn(C)c6)cc5c43)cc21 — remaining binding (KINOMEscan; 1 µM; relative to: DMSO control): 78%
Cc1cnc2nc1Nc1cccc(c1)COC/C=C/COCc1cc(ccc1OCCN1CCOCC1)N2 — remaining binding (binding; 0.1 µM): 65%
COCC12C(=O)NC3C4(C(OC)CC1O)C1CC5(O)C(OC)C(O)C(OC(C)=O)(C1C5OC(=O)c1ccccc1)C3(O)C(OC)C24 (centres unmarked) — remaining activity (kinase activity, inhibitor, ProQinase kinase profiling; 25 µM; relative to: control): 103% and 116%
Cc1cccc(O[C@H]2CCC[C@@H](C(C)CNCc3ccncc3)C2)c1 (relative stereo) — inhibition (cell-free assay; 1 µM): 18%
Nc1nc(Nc2ccccc2)sc1C(=O)c1ccccc1 — remaining activity (enzyme activity, inhibitor; 10 µM): 30%
COc1cc(OC)c(F)c(/C=C/c2cnc3ccn(S(=O)(=O)c4cn(CCF)cn4)c3n2)c1F — inhibition (10 nM): 0%
CCN1CCN(Cc2ccc(NC(=O)c3ccc(C)c(NC(=O)c4cncc(-c5cccs5)c4)c3)cc2C(F)(F)F)CC1 — remaining binding (binding, competition with immobilised ligand; 1 µM): 9%
NC(=O)[C@@H](O)C[C@H]1CCc2sc3ncnc(O[C@H]4CC[C@H](N5CCOCC5)CC4)c3c21 — inhibition (enzyme activity, inhibitor; 10 µM): 19%
Cc1ccc(C)c(-c2ccc3nc(NC(=O)C4CCCCC4)nn3c2)c1 — remaining activity (enzyme activity, Dundee kinase panel; 10 µM): 55%
Nc1ncc(-c2cc(-c3cnn(CC(F)(F)F)c3)ncc2F)nc1C(=O)NC1CNCC(F)C1 (centres unmarked) — remaining activity (enzyme activity; 1 µM; relative to: DMSO control): 98.7%
C=CC(=O)N1CCCC(n2c(=O)c3ncccc3n(Cc3ccc(Oc4ccccc4)cc3)c2=O)C1 (centres unmarked) — remaining binding (cell-free assay, competition with immobilised ligand; 1 µM): 100%
O=C(Cc1ccc(OCc2ccccc2)cc1)NC1(C(=O)O)CCN(C(=O)c2ccc(-c3cccc(Cl)c3)cc2)CC1 — activity vs control (enzyme activity, inhibitor; 10 µM): 78%
C=CC(=O)N1Cc2nc(-c3cc(-c4cc(Cl)cnc4Cl)c(F)cc3F)n(-c3ccncn3)c2C1 — inhibition (cell-free assay; 1 µM): 12.3%
CNC(=O)C1CCN(c2cc(C)c(F)cc2NC(=O)c2ccc(-c3cc(O)ccc3C)c(C)c2)CC1 — remaining binding (binding, competition with immobilised ligand; 1 µM): 100%
Cc1ccc(-c2c(/C=C(\C#N)C(=O)NC(C)C)n(CCCO)c3ncnc(N)c23)cc1 — remaining binding (cell-free assay, competition with immobilised ligand; 1 µM): 85%
CNC1C[S+]2CC[S+]3CC[S+](C1)[Ru-4]321([N]=C=S)[n]2c3ccc(OC)cc3c3c4c(c5cc(F)c[n+]1c5c32)C(=O)NC4=O (centres unmarked) — remaining binding (KinomeScan; 0.1 µM; relative to: untreated): 100%
COc1cc(Nc2nc(C)cc(-c3cnn4nc(OC)ccc34)n2)cc(C(F)(F)F)c1 — remaining activity (inhibitor; 1 µM; relative to: control): 82%
Cc1cccc(-c2ccc3nc(NC(=O)C4CCCO4)nn3c2)c1 (centres unmarked) — remaining activity (enzyme activity, Dundee kinase panel; 10 µM): 57%
C=CC(=O)Nc1cccc(-c2cnc3[nH]cc(C(=O)NC(C)(C)C)c3n2)c1 — inhibition (kinase activity; 0.1 µM): 4%
CN1CCN(c2ccc(Nc3ncc(Cl)c(Nc4ccccc4P(C)(C)=O)n3)cc2Br)CC1 — inhibition (enzyme activity, inhibitor; 0.1 µM): 50.1%
